Measured values pooled from the literature.
Lines come from different studies, so protocols differ. Numbers after ± are the reported error.

With `COC(=O)C(c1ccccc1Cl)N1CCC(SCC(=O)c2cccc(OC)c2)C(=CC(=O)O)C1` (stereo not shown) the measured concentration was 51.1 ± 4.9 ng/mL (LC-MS/MS; human plasma; 50 ng/mL, 8 h, room temperature).
`C[N+](C)(C)CC(CC(=O)[O-])OC(=O)CCC(=O)Nc1ccn([C@@H]2O[C@H](CO)[C@@H](O)C2(F)F)c(=O)n1` (stereo partly shown) has a measured concentration of 15.3 ± 1.9 ng/mL (THU-treated rat plasma; 15.00 ng/mL, 2 months, -80 °C, frozen storage, low QC).
The measured concentration of `Cc1[nH]c(/C=C2\C(=O)Nc3ccc(F)cc32)c(C)c1NC(=O)CCN1CCN(C)CC1` is reported as 74.8 ng/mL (dog plasma; 80 ng/mL nominal, 24 h, 25 °C, processed samples at room temperature).
`COc1ccc(-c2cc(=O)c3c(O)cc(O[C@@H]4O[C@H](CO[C@@H]5O[C@@H](C)[C@H](O)[C@@H](O)[C@H]5O)[C@@H](O)[C@H](O)[C@H]4O)cc3o2)cc1` gave a measured concentration of 755 ± 16.5 ng/mL (freeze-thaw stability; rat plasma; 3 days, medium QC, 3 freeze-thaw cycles).
With `Cc1ccc(/N=N/c2c(O)ccc3ccccc23)c(C)c1` the measured concentration was 15.9 ng/mL (rat whole blood QC samples; 16.0 µg/L, 12 h, room temperature, short-term stability).
`CNC(=O)N[C@]1(C)CCC[C@@]2(C)C3CC[C@@]4(C)C[C@]3(CCC21)CC4=O` (single isomer, unassigned) has a measured concentration of 403 ± 5.15 ng/mL (rat plasma; 400 ng/mL, freeze-thaw stability, three cycles).
`COc1ccc([C@@H]2CC(=O)c3c(O)cc(O[C@@H]4O[C@H](CO[C@@H]5O[C@@H](C)[C@H](O)[C@@H](O)[C@H]5O)[C@@H](O)[C@H](O)[C@H]4O)cc3O2)cc1O` gave a measured concentration of 0.46 ± 0.04 ng/mL (rat plasma; 0.48 ng/mL, 12 h, room temperature, autosampler stability).
`Oc1ccc2ccccc2c1/N=N/c1ccccc1` has a measured concentration of 15.7 ng/mL (rat whole blood QC samples; 16.0 µg/L, 8 h, room temperature, short-term stability).
With `COc1ccnc(C[S+]([O-])c2nc3cc(-n4cccc4)ccc3[nH]2)c1C` (stereo not shown) the measured concentration was 238 ng/mL (rat plasma in autosampler; 250 ng/mL, 24 h, 4 °C).
`COC(=O)C(c1ccccc1Cl)N1CCC2SC(=O)C=C2C1` (stereo not shown) has a measured concentration of 1.9 ± 0.2 ng/mL (LC-MS/MS; human plasma; 2 ng/mL, after freeze-thaw cycles).

Excerpt of the above:
The measured concentration of `Cc1[nH]c(/C=C2\C(=O)Nc3ccc(F)cc32)c(C)c1NC(=O)CCN1CCN(C)CC1` is reported as 74.8 ng/mL (dog plasma; 80 ng/mL nominal, 24 h, 25 °C, processed samples at room temperature).
